Experimental data gathered from unrelated publications.
Lines come from different studies, so protocols differ.

Compound	species	medium	route	dose	setting	Cmax
C[C@@H]1CCC[C@H](n2cnc(-c3cc(Cl)ccc3-n3cc(Cl)nn3)cc2=O)c2cc(ccn2)-c2c(cnn2C(F)F)NC1=O	human	plasma	oral	500 mg	single dose, fasted, healthy volunteers	1850 ng/mL
Cc1c(Cl)c(C)[n+]([O-])c(Cl)c1-c1noc(-c2cc(O)c(O)c([N+](=O)[O-])c2)n1	male human	plasma	oral	50 mg	single dose, fasted, healthy volunteers	1460 ng/mL
CS(=O)(=O)n1cc2c(n1)CN([C@H]1CO[C@H](c3cc(F)ccc3F)[C@@H](N)C1)C2	male human	plasma	oral	25 mg	single dose, fasted	750 nM
COc1cc(C(=O)NC2CCN(C)CC2)c(F)cc1Nc1ncc(C(F)(F)F)c(Oc2cccc3c2C(=O)N(C)C3)n1	human	plasma	oral	200 mg once daily	multiple doses, steady state, patients	2750 nM
Nc1ccc(-c2nc([C@H]3CCc4cc(-c5cc(Cl)ccc5-n5cnnn5)cc(=O)n43)c(F)[nH]2)c(F)n1	human	plasma	oral	5 mg	single dose, fasted	42.3 ng/mL
COc1cccc(-c2ccc(NC(=O)C3=C(C(=O)O)CCC3)c(F)c2)c1	male human	plasma	oral	10 mg	single dose, fasted, healthy volunteers	1530 ng/mL
C[C@H](N)C(=O)N1C[C@H](CCCB(O)O)[C@](N)(C(=O)O)C1	human	plasma	oral	50 mg twice daily	multiple doses, patients	1020 ng/mL
CNc1nc(Nc2ccc(-n3cnc(C)n3)c(OC)c2)nc2c1CC[C@H]2c1ccc(F)cc1	human	plasma	oral	100 mg	single dose, healthy volunteers	280 ng/mL
CN1CC[C@@H](NC(=O)Nc2ccc(C#N)cc2)C[C@@H]1c1nc2ccccc2[nH]1	human	plasma	oral	100 mg	single dose, patients	1020 ng/mL
C[C@@H](N)c1cc(Cl)ccc1Cn1c(=S)[nH]c(=O)c2[nH]ccc21	human	plasma	oral	10 mg	multiple doses, once daily, healthy volunteers	80.6 nM
CNCc1ccc(-c2[nH]c3cc(F)cc4c3c2CCNC4=O)cc1	human	plasma	oral	360 mg	multiple doses, twice daily, steady state, patients	1300 ng/mL
C#C[C@]1(CO)O[C@@H](n2cnc3c(N)nc(F)nc32)C[C@@H]1O	human	plasma	oral	30 mg	single dose, fed	542 nM
Nc1ncc(-c2cnn(CCO)c2)c2scc(-c3ccc(NC(=O)Nc4cccc(F)c4)cc3)c12	human	plasma	oral	340 mg	patients	593 ng/mL
COc1cccc(OCCCN)c1-c1cc(Nc2cnc(C#N)cn2)n[nH]1	human	plasma	intravenous	105 mg/m²	patients, infusion	820 ng/mL
CNC(=O)c1ccc(-c2cnc3ncc(Cc4ccc5ncccc5c4)n3n2)cc1F	human	plasma	oral	100 mg twice daily	multiple doses, steady state, patients	660 ng/mL
CC#CC(=O)N1CCC[C@H]1c1nc(-c2ccc(C(=O)Nc3ccccn3)cc2)c2c(N)nccn12	human	plasma	oral	100 mg	single dose, fasted	602 ng/mL
O=C(c1nc2n(n1)[C@H](c1ccccc1)C[C@@H]2F)C1CC1	human	plasma	oral	25 mg	single dose, fasted, healthy volunteers	479 ng/mL
CC(C)(Sc1ccncc1-c1ccc(C#N)c2ccccc12)C(=O)O	male human	plasma	oral	10 mg	single dose, fasted	21.9 ng/mL
CCCOc1ccc([C@H]2CNC(=O)N2c2ccc3[nH]cnc3c2)cc1	human	plasma	oral	500 mg	multiple doses, twice daily, fasted	4460 ng/mL
O=C(CCCCCCC(=O)Nc1ccccc1)NO	human	serum	oral	1000 mg	patients	8740 nM
Nc1cc(F)ccc1NC(=O)c1ccc(CNC(=O)/C=C/c2cccnc2)cc1	human	plasma	oral	30 mg	patients	199 ng/mL
C[C@H]1CO[C@@H]2Cn3cc(C(=O)NCc4ccc(F)cc4F)c(=O)c(O)c3C(=O)N12	human	plasma	oral	30 mg	single dose, fed	3950 ng/mL
CNC(=O)c1ccccc1Sc1ccc2c(/C=C/c3ccccn3)n[nH]c2c1	human	plasma	oral	5 mg	single dose, fed	17 ng/mL
CCCCCN1C[C@H](O)[C@@H](O)[C@H](O)[C@@H]1CO	male human	plasma	oral	2000 mg	single dose, fasted, healthy volunteers	16700 ng/mL
Cc1[nH]c2ccccc2c1CCNCc1ccc(/C=C/C(=O)NO)cc1	human	plasma	oral	20 mg	single dose, fed	12 ng/mL

A few entries again:
Compound	species	medium	route	dose	setting	Cmax
O=C(c1nc2n(n1)[C@H](c1ccccc1)C[C@@H]2F)C1CC1	human	plasma	oral	25 mg	single dose, fasted, healthy volunteers	479 ng/mL
CNCc1ccc(-c2[nH]c3cc(F)cc4c3c2CCNC4=O)cc1	human	plasma	oral	360 mg	multiple doses, twice daily, steady state, patients	1300 ng/mL
C#C[C@]1(CO)O[C@@H](n2cnc3c(N)nc(F)nc32)C[C@@H]1O	human	plasma	oral	30 mg	single dose, fed	542 nM
